# Measurements from different studies.
# Protocols differ between the studies behind these lines. Numbers after ± are the reported error.
SMILES,test,test system,conditions,Cmax
Cc1cn(-c2cc(NC(=O)c3ccc(C)c(Nc4nccc(-c5cccnc5)n4)c3)cc(C(F)(F)F)c2)cn1,,"human, serum","oral, 400 mg twice daily, steady state",1350 ng/mL
O=C(/C=C/c1cccc(S(=O)(=O)Nc2ccccc2)c1)NO[C@@H]1O[C@H](C(=O)O)[C@@H](O)[C@H](O)[C@H]1O,,"human moderate liver dysfunction, plasma","intravenous, 400 mg/m^2, 30 min infusion, cycle 1 day -7, added: belinostat 400 mg/m^2 iv",67200 ng/mL
COc1cc(Nc2ncc3c(n2)-c2ccc(Cl)cc2C(c2c(F)cccc2OC)=NC3)ccc1C(=O)O,,"human, plasma","oral, 20 mg twice daily, day 7, steady state geometric mean",1280 nM
Nc1ccn([C@@H]2O[C@H](CO)[C@@H](O)C2(F)F)c(=O)n1,,"human cancer patients, plasma","intravenous, 600 mg/m^2, cycle 1 day 1, given alone",7930 ng/mL
O=C(Cc1cccc(OC(F)(F)F)c1)Nc1ccc(CCCCc2nnc(NC(=O)Cc3ccccn3)s2)nn1,,"human patients, plasma","oral, 800 mg three times daily fasted, cycle 1 day 15 steady state",1060 ng/mL
CC[C@H](C)[C@H](NC(=O)[C@H](CC(C)C)NC(=O)[C@H](Cc1c[nH]c2ccccc12)NC(=O)[C@H](C)NC(=O)[C@@H](NC(=O)[C@H](Cc1ccccc1)NC(=O)[C@H](CC(=O)O)NC(=O)[C@H](CCCNC(=N)N)NC(=O)[C@H](C)NC(=O)[C@H](C)NC(=O)[C@H](CC(C)C)NC(=O)[C@H](C)NC(=O)[C@H](CC(=O)O)NC(=O)[C@H](CC(C)C)NC(=O)[C@@H](NC(=O)[C@@H](NC(=O)[C@H](C)NC(=O)[C@H](CC(C)C)NC(=O)[C@H](CCC(=O)O)NC(=O)[C@H](CO)NC(=O)[C@H](CO)NC(=O)[C@H](Cc1ccccc1)NC(=O)[C@@H](NC(=O)CNC(=O)[C@H](CCC(=O)O)NC(=O)CNC(=O)[C@@H](N)Cc1cnc[nH]1)[C@@H](C)O)[C@@H](C)O)[C@@H](C)CC)[C@@H](C)CC)C(=O)N[C@@H](C)C(=O)N[C@H](C(=O)N[C@@H](CCCCN)C(=O)N[C@H](C(=O)N[C@H](C(=O)N[C@@H](CC(=O)O)C(=O)N[C@@H](CCCCN)C(=O)N[C@@H](CCCCN)C(=O)N[C@@H](CCCCN)C(=O)N[C@@H](CCCCN)C(=O)N[C@@H](CCCCN)C(=O)N[C@@H](CCCCN)C(N)=O)[C@@H](C)O)[C@@H](C)CC)[C@@H](C)O,immunoaffinity LC-MS/MS,"healthy human subjects, plasma","subcutaneous, 10 mg once weekly, day 36 after 6 doses, steady state, geometric mean",0.432 nM
CC(C)n1nc(-c2ccc3oc(N)nc3c2)c2c(N)ncnc21,,"human, plasma","oral, 30 mg once weekly, cycle 1 day 1",293 ng/mL
COCCCCn1c(C(=O)N(CC(C)C)[C@@H]2CNC[C@H](C(=O)N3CCOCC3)C2)nc2ccccc21,,"non-elderly human, plasma","oral, 160 mg once daily, day 7",1860 ng/mL
O=C([O-])CCCCCCCNC(=O)c1ccccc1O.[Na+],,"human, normal hepatic function, plasma","oral, dose not given, day 10, geometric mean",1310 ng/mL
C=CCNC1=C2C[C@@H](C)C[C@H](OC)[C@H](O)[C@@H](C)/C=C(\C)[C@H](OC(N)=O)[C@@H](OC)/C=C\C=C(/C)C(=O)NC(=CC1=O)C2=O,,"human, plasma","intravenous infusion, 450 mg/m^2, day 1, 3 h infusion",15200 nM
CC(=O)c1c(C)c2cnc(Nc3ccc(N4CCNCC4)cn3)nc2n(C2CCCC2)c1=O,,"human patients, plasma","oral, 50 mg/m^2 repeated doses, day 21",90 ± 62 ng/mL
C[C@H](N)C(=O)N1C[C@H](CCCB(O)O)[C@](N)(C(=O)O)C1,,"human patients, plasma","oral, 100 mg single dose, cycle 1 day 1",1480 ± 491 ng/mL
C=CC(=O)Nc1cc(Nc2ncc(C(=O)OC(C)C)c(-c3cn(C)c4ccccc34)n2)c(OC)cc1N(C)CCN(C)C,,"human, fasted","oral, 80 mg single dose, geometric mean",14.7 ng/mL
COc1ccc2nc([S@@+]([O-])Cc3ncc(C)c(OC)c3C)[nH]c2c1,,"human, CYP2C19 normal metabolizers, plasma","oral, 40 mg/day, day 5",6270 ± 1940 ng/mL
CN(CCOc1ccc(CC2SC(=O)NC2=O)cc1)c1ccccn1 (stereo not shown),,"human, both sexes, plasma","oral, 4 mg, day 3, geometric mean, added: SCY-078 750 mg",235 ng/mL
Cc1nc2cccc(N)c2c(=O)n1C1CCC(=O)NC1=O (stereo not shown),,"healthy adult human, plasma","oral, 3 mg, geometric mean, added: itraconazole 200 mg once daily",66.3 ng/mL
CC#CC(=O)N1CC[C@@H](n2c(=O)n(-c3ccc(Oc4ccccc4)cc3)c3c(N)ncnc32)C1,,"human, fasting, plasma","oral, 320 mg once daily, cycle 1 day 28",971 ng/mL
O=c1[nH]cc(F)c(=O)[nH]1,,"human, plasma","intravenous, 2400 mg/m^2 maintenance, cycle 1 without vorinostat, once-daily cohort",17300 ± 2970 ng/mL
C#Cc1cccc(Nc2ncnc3cc(OCCOC)c(OCCO)cc23)c1,,"human, plasma","erlotinib, day 14, normalised to erlotinib 150 mg",317 ± 166 ng/mL

# For quick reference, copied from above:
SMILES,test,test system,conditions,Cmax
CC[C@H](C)[C@H](NC(=O)[C@H](CC(C)C)NC(=O)[C@H](Cc1c[nH]c2ccccc12)NC(=O)[C@H](C)NC(=O)[C@@H](NC(=O)[C@H](Cc1ccccc1)NC(=O)[C@H](CC(=O)O)NC(=O)[C@H](CCCNC(=N)N)NC(=O)[C@H](C)NC(=O)[C@H](C)NC(=O)[C@H](CC(C)C)NC(=O)[C@H](C)NC(=O)[C@H](CC(=O)O)NC(=O)[C@H](CC(C)C)NC(=O)[C@@H](NC(=O)[C@@H](NC(=O)[C@H](C)NC(=O)[C@H](CC(C)C)NC(=O)[C@H](CCC(=O)O)NC(=O)[C@H](CO)NC(=O)[C@H](CO)NC(=O)[C@H](Cc1ccccc1)NC(=O)[C@@H](NC(=O)CNC(=O)[C@H](CCC(=O)O)NC(=O)CNC(=O)[C@@H](N)Cc1cnc[nH]1)[C@@H](C)O)[C@@H](C)O)[C@@H](C)CC)[C@@H](C)CC)C(=O)N[C@@H](C)C(=O)N[C@H](C(=O)N[C@@H](CCCCN)C(=O)N[C@H](C(=O)N[C@H](C(=O)N[C@@H](CC(=O)O)C(=O)N[C@@H](CCCCN)C(=O)N[C@@H](CCCCN)C(=O)N[C@@H](CCCCN)C(=O)N[C@@H](CCCCN)C(=O)N[C@@H](CCCCN)C(=O)N[C@@H](CCCCN)C(N)=O)[C@@H](C)O)[C@@H](C)CC)[C@@H](C)O,immunoaffinity LC-MS/MS,"healthy human subjects, plasma","subcutaneous, 10 mg once weekly, day 36 after 6 doses, steady state, geometric mean",0.432 nM
CC(C)n1nc(-c2ccc3oc(N)nc3c2)c2c(N)ncnc21,,"human, plasma","oral, 30 mg once weekly, cycle 1 day 1",293 ng/mL
COCCCCn1c(C(=O)N(CC(C)C)[C@@H]2CNC[C@H](C(=O)N3CCOCC3)C2)nc2ccccc21,,"non-elderly human, plasma","oral, 160 mg once daily, day 7",1860 ng/mL
